# Measured values collected from several papers.
# Every numbered part comes from another study and shows a few of its results, in no order. Values joined by “and” are separate records of one study, mostly repeats; a detail may differ.

# Sample 1
# Target: Homeodomain-interacting protein kinase 3 (HIPK3, Homo sapiens, UniProt Q9H422)
# Observed: enzyme activity
# Mode: inhibitor
# Concentration: 0.5 µM
# Relative to: control
Compound,remaining activity
O=C(c1cc2cc(O)ccc2[nH]1)c1cc2cc(O)ccc2[nH]1,97.3%
COc1cccc(-c2cc(=O)c3ccccc3o2)c1N,101%
O=C1NC(=O)c2c1c1c3ccccc3[nH]c1c1[nH]c3cc(Br)ccc3c21,93.3%
CCCCc1c(-c2ccc(OC)cc2)[nH]c2nccnc12,99.9%
O=C1NC(=O)c2c1c1c3ccccc3[nH]c1n1cncc21,66.9%
Clc1ccc(Nc2nnc(Cc3ccncc3)c3ccccc23)cc1,96.5%
N#CC(c1ccnc(NCCc2cccnc2)n1)c1nc2ccccc2s1 (stereo not drawn),106%
O=C1Cc2c([nH]c3ccc(Br)cc23)-c2ccccc2N1,109%
N#C/C(=C(/N)SC1C=CC=CC1)c1cccc(C(O)c2ccncc2)c1 (stereo not drawn),122%
CN1CCN(c2ccc3nc(-c4c(N)c5c(F)cccc5[nH]c4=O)[nH]c3c2)CC1,95.6%
CNc1cc2c(Nc3cccc(Br)c3)ncnc2cn1,94.1%
NC(=O)c1ccc(-c2nc(-c3ccc4c(c3)OCCO4)c(-c3ccccn3)[nH]2)cc1,96.5%
O=C1Nc2ccccc2/C1=C\c1c(Cl)[nH]c2ccccc12,100%
N#Cc1cnc2cnc(NCc3cccnc3)cc2c1Nc1ccc(F)c(Cl)c1,96.5%
Cc1cc(Nc2cc(N3CCN(C)CC3)nc(Sc3ccc(NC(=O)C4CC4)cc3)n2)[nH]n1,99.1%
c1cc(-c2cnn3cc(-c4ccc(OCCN5CCCCC5)cc4)cnc23)ccn1,89.4%
O=C(c1ccccc1)c1ccc(N2CCOCC2)cc1O,98.1%
CCN(CC)CCCCN1c2ccccc2Oc2ccc(Cl)cc21,94.2%
COc1ccc2c(c1)c(C1=C(c3c[nH]c4ccccc34)C(=O)NC1=O)cn2CCCN(C)C,74.1%
CCCCc1c(-c2ccc(O)cc2)[nH]c2nccnc12,100%
O=c1cc(N2CCOCC2)oc2c(-c3ccccc3)cccc12,120%
O=C1Nc2ccc(Br)cc2/C1=C/c1cc2c([nH]1)CCCC2,96.7%
FC(F)(F)c1ccc(/C=C/c2nc(COc3ccc(CCCCn4ccnn4)cc3)co2)cc1,100%
COc1cc2c(Nc3ccc(Br)cc3F)ncnc2cc1OCC1CCN(C)CC1,99.5%
O=c1c(-c2ccc(F)cc2)c(-c2ccncc2)[nH]n1-c1ccc(Cl)cc1,101%

# Sample 2
# SMILES: CCN(c1nc(N)c(C(=O)N=C(N)N)nc1Cl)C(C)C
# Observed: β-arrestin recruitment
# Mode: agonist
# Method: PRESTO-Tango
# Concentration: 10 µM
# Relative to: untreated
target,fold over basal
"Glucagon receptor (GCGR, Homo sapiens, UniProt P47871)",1.07 fold
"Apelin receptor (APLNR, Homo sapiens, UniProt P35414)",1.2
"Adhesion G-protein coupled receptor G5 (ADGRG5, Homo sapiens, UniProt Q8IZF4)",0.97
"N-formyl peptide receptor 3 (Homo sapiens, UniProt P25089)",0.59 fold
"Probable G-protein coupled receptor 25 (GPR25, Homo sapiens, UniProt O00155)",0.97
"Adhesion G protein-coupled receptor F5 (ADGRF5, Homo sapiens, UniProt Q8IZF2)",0.87
"12-(S)-hydroxy-5,8,10,14-eicosatetraenoic acid receptor (GPR31, Homo sapiens, UniProt O00270)",0.99
"G-protein coupled receptor 12 (GPR12, Homo sapiens, UniProt P47775)",1.1
"Neuropeptide Y receptor type 1 (NPY1R, Homo sapiens, UniProt P25929)",0.85
"Hydroxycarboxylic acid receptor 3 (HCAR3, Homo sapiens, UniProt P49019)",1.3 fold

# Sample 3
# Structure (SMILES): O=C(O)[C@H]1[C@H](Cn2nnc3ccccc3c2=O)CC[C@@H]1C(=O)c1ccc(OCCC2CCOCC2)cc1
# Concentration: 1 µM
target,observed,method,remaining binding
"cAMP-dependent protein kinase catalytic subunit PRKX (PRKX, Homo sapiens, UniProt P51817)",cell-free assay,competition with immobilised ligand,93%
"Serine/threonine-protein kinase MRCK gamma (CDC42BPG, Homo sapiens, UniProt Q6DT37)",,competition binding,93%
"Serine/threonine-protein kinase MRCK beta (CDC42BPB, Homo sapiens, UniProt Q9Y5S2)",cell-free assay,competition with immobilised ligand,100%
"Dual specificity tyrosine-phosphorylation-regulated kinase 1B (DYRK1B, Homo sapiens, UniProt Q9Y463)",cell-free assay,competition with immobilised ligand,100%
"Fibroblast growth factor receptor 3 (FGFR3, Homo sapiens, UniProt P22607, G697C)",cell-free assay,competition with immobilised ligand,100%
"Receptor-type tyrosine-protein kinase FLT3 (FLT3, Homo sapiens, UniProt P36888, N841I)",cell-free assay,competition with immobilised ligand,85%
"Platelet-derived growth factor receptor alpha (PDGFRA, Homo sapiens, UniProt P16234)",cell-free assay,competition with immobilised ligand,100%
"Mast/stem cell growth factor receptor Kit (KIT, Homo sapiens, UniProt P10721)",cell-free assay,competition with immobilised ligand,65%
"Casein kinase I isoform alpha (CSNK1A1, Homo sapiens, UniProt P48729)",cell-free assay,competition with immobilised ligand,82%
"Testis-specific serine/threonine-protein kinase 1 (TSSK1B, Homo sapiens, UniProt Q9BXA7)",cell-free assay,competition with immobilised ligand,73%
"Tyrosine-protein kinase receptor Tie-1 (TIE1, Homo sapiens, UniProt P35590)",cell-free assay,competition with immobilised ligand,75%
"Serine/threonine-protein kinase Nek4 (NEK4, Homo sapiens, UniProt P51957)",cell-free assay,competition with immobilised ligand,84%
"Mitogen-activated protein kinase kinase kinase 11 (MAP3K11, Homo sapiens, UniProt Q16584)",cell-free assay,competition with immobilised ligand,92%
"Calcium/calmodulin-dependent protein kinase type II subunit alpha (CAMK2A, Homo sapiens, UniProt Q9UQM7)",cell-free assay,competition with immobilised ligand,100%
"LIM domain kinase 1 (LIMK1, Homo sapiens, UniProt P53667)",cell-free assay,competition with immobilised ligand,100%
"Mitogen-activated protein kinase kinase kinase kinase 3 (MAP4K3, Homo sapiens, UniProt Q8IVH8)",cell-free assay,competition with immobilised ligand,100%

# Sample 4
# Structure (SMILES): C[C@@H]1CN(c2ccc(-c3cc(C(=O)NCCOCCOCCOCCOCCOCCOCCNC(=O)/C=C/c4[nH]cc(C(=O)N[C@@H](CC(N)=O)c5ccc(F)c(Cl)c5)c4-c4ccc(Cl)cc4F)ccc3F)cc2NC(=O)c2ccc(F)cc2C(F)(F)F)C[C@H](C)N1C
# Mode: degrader
# Time: 24 h
# WDR5: WD repeat-containing protein 5 (WDR5, Homo sapiens, UniProt P61964)
# WDR5/DCAF1: WDR5/DCAF1 (Homo sapiens, UniProt P61964+Q9Y4B6)
target,method,item,concentration,relative to,remaining protein level
WDR5,Jess capillary immunoassay,WDR5 over vinculin,777 nM,DMSO,67.2% and 76.7% and 65.8%
WDR5,Jess capillary immunoassay,WDR5 over vinculin,10000 nM,DMSO,80.7% and 61.3% and 69%
WDR5/DCAF1,HiBiT luminescence,,34.2 nM,,75.5% and 86.8% and 92%
WDR5/DCAF1,HiBiT luminescence,,2 nM,,97.4% and 102% and 94.3%
WDR5,Jess capillary immunoassay,WDR5 over vinculin,331 nM,DMSO,62.3% and 70.9% and 80.6%
WDR5/DCAF1,HiBiT luminescence,,88.1 nM,,81.1% and 75.4% and 68.8%
